Experimental data from different studies.
Compare with care: the assays were run in different laboratories. ± marks the error that the study gave.

Structure (SMILES) | assay | test system | setting | scale | endpoint | result
CSCC[C@H](NC(=O)CNC(=O)[C@H](CCCCN)NC(=O)[C@H](CC(C)C)NC(=O)[C@@H]1CCCN1C(=O)[C@H](CO)NC(=O)[C@H](Cc1c[nH]cn1)NC(=O)[C@H](Cc1c[nH]c2ccccc12)NC(=O)[C@H](CCCNC(=N)N)NC(=O)[C@H](CC(C)C)NC(=O)[C@H](CCCNC(=N)N)NC(=O)[C@H](Cc1c[nH]c2ccccc12)NC(=O)[C@H](CS)NC(=O)CCCCCNC(=O)CN1CCN(CC(=O)O)CCN(CC(=O)O)CCN(CC(=O)O)CC1)C(=O)O [copper-64 labelled] |  | BALB/c nude mice, Huh-7 xenograft, tumour | intravenous, 1.85 MBq, 2 h |  | tumour uptake | 4.23 %ID/g
CC(C)C[C@@H](NC(=O)[C@@H](CCCNC(=N)N)NC(=O)[C@@H](Cc1c[nH]cn1)NC(=O)[C@@H](Cc1c[nH]c2ccccc12)NC(=O)[C@@H](Cc1c[nH]cn1)NC(=O)[C@@H](Cc1ccccc1)NC(=O)[C@H](NC(=O)[C@@H](Cc1ccc(O)cc1)NC(=O)CNC(=O)CNC(=O)CCOCCOCCOCCNC(=O)CN1CCN(CC(=O)O)CCN(CC(=O)O)CC1)[C@H](C)O)C(=O)N[C@H](CC(N)=O)C(=O)N1CCC[C@@H]1C(=O)O [gallium-68 labelled] | dynamic PET | male C57BL/6 mice, tumour | intravenous, 60 min | relative to: tumour over muscle | tumour to muscle ratio | 12.9 ± 2.64
[3H]c1sc(C)nc1C=C(C)C1CC2C(CCCC(C)C(O)C(C)C(=O)C(C)(C)C(O)CC(=O)O1)N2CCO (centres unmarked) |  | CD2F1 mice, M109 tumour (FR−) | intravenous, 2.2 nmol/kg, 2 h |  | tumour concentration | 250 ± 20 ng/g
C=Cc1c(C)c2cc3nc(c(CC(=O)O)c4[nH]c(cc5nc(cc1[nH]2)C(C)=C5CC)c(C)c4C(=O)O)[C@@H](CCC(=O)NCCCC[C@H](NC(C)=O)C(=O)N[C@@H](Cc1ccccc1)C(=O)N[C@@H](Cc1ccccc1)C(=O)N[C@H](C(=O)N[C@@H](CC(C)C)C(=O)N[C@@H](CCCCN)C(=O)N[C@@H](CO)C(=O)NCC(=O)N[C@@H](CCC(N)=O)C(=O)N[C@@H](Cc1ccc(O)cc1)C(=O)N[C@@H](C)C(=O)N[C@@H](CO)C(=O)N[C@@H](Cc1ccc(O)cc1)C(=O)N[C@@H](Cc1c[nH]cn1)C(=O)N[C@@H](CS)C(=O)N[C@@H](Cc1c[nH]c2ccccc12)C(=O)N[C@@H](CS)C(=O)N[C@@H](Cc1c[nH]c2ccccc12)C(=O)N[C@@H](CCCNC(=N)N)C(=O)N[C@@H](CC(=O)O)C(=O)N1CCC[C@H]1C(=O)NCC(=O)N[C@@H](CCCNC(=N)N)C(=O)N[C@@H](CO)C(=O)NCC(=O)NCC(=O)N[C@@H](CO)C(=O)N[C@@H](CCCCN)C(N)=O)C(C)C)[C@@H]3C | fluorescence imaging | mice bearing 4T1 tumours, tumour | dose not given |  | tumour retention time | > 7 days
NC(=O)[C@@H](CCCCNC(=O)CNC(=O)CCC(=O)NCCc1c[nH]cn1)NC(=O)[C@@H](Cc1ccc(O)cc1)NC(=O)[C@@H](CCCCNC(=O)CNC(=O)CCC(=O)NCCc1c[nH]cn1)NC(=O)Cc1ccc(CN2CCN(CC(=O)O)CCN(CC(=O)O)CC2)cc1 [fluorine-18 labelled] |  | nude mice, tumour-bearing, tumour | intravenous, 3 h, together with: TF2 106 µg i.v. 16 h before |  | tumour uptake | 26.5 ± 6 %ID/g
COc1cc2ncnc(Oc3cccc(N[11C](=O)Nc4cc(C(C)(C)C(F)(F)F)on4)c3)c2cc1OC | dynamic PET | female Balb/c nude mice, A375 xenograft, tumour | intravenous, 0 min |  | tumour uptake | 0.19 ± 0.03 %ID/g
CCCC[C@H]1C(=O)N(C)[C@@H](CCCC)C(=O)N[C@@H](CCCNC(=O)CN2CCN(CC(=O)O)CCN(CC(=O)O)CCN(CC(=O)O)CC2)C(=O)N[C@H](C(=O)NCC(N)=O)CSCC(=O)N[C@@H](Cc2ccc(O)cc2)C(=O)N(C)[C@@H](C)C(=O)N[C@@H](CC(N)=O)C(=O)N2CCC[C@H]2C(=O)N[C@@H](Cc2c[nH]cn2)C(=O)N[C@@H](CC(C)C)C(=O)N(C)CC(=O)N[C@@H](Cc2c[nH]c3ccccc23)C(=O)N[C@@H](CO)C(=O)N[C@@H](Cc2c[nH]c3ccccc23)C(=O)N1C [gallium-68 labelled] | static PET | NOD/SCID mice, CHO xenograft, CHO tumour, PD-L1-negative | intravenous, 1 h post injection |  | tumour uptake | 3.2 ± 0.4 %ID/g
COc1ccc(C)cc1NC(=O)OC1CC2CCCC(C1)N2Cc1ccc(CC[18F])cc1 (centres unmarked) |  | BALB/c mice, EMT6 tumour | 1 h | relative to: tumour over blood | tumour to tissue ratio | 3.86
